Results of several laboratories.
Protocols differ between the studies behind these lines. Numbers after ± are the reported error.
Chain of UniProt Q8IZX4 (whole entry, looked up): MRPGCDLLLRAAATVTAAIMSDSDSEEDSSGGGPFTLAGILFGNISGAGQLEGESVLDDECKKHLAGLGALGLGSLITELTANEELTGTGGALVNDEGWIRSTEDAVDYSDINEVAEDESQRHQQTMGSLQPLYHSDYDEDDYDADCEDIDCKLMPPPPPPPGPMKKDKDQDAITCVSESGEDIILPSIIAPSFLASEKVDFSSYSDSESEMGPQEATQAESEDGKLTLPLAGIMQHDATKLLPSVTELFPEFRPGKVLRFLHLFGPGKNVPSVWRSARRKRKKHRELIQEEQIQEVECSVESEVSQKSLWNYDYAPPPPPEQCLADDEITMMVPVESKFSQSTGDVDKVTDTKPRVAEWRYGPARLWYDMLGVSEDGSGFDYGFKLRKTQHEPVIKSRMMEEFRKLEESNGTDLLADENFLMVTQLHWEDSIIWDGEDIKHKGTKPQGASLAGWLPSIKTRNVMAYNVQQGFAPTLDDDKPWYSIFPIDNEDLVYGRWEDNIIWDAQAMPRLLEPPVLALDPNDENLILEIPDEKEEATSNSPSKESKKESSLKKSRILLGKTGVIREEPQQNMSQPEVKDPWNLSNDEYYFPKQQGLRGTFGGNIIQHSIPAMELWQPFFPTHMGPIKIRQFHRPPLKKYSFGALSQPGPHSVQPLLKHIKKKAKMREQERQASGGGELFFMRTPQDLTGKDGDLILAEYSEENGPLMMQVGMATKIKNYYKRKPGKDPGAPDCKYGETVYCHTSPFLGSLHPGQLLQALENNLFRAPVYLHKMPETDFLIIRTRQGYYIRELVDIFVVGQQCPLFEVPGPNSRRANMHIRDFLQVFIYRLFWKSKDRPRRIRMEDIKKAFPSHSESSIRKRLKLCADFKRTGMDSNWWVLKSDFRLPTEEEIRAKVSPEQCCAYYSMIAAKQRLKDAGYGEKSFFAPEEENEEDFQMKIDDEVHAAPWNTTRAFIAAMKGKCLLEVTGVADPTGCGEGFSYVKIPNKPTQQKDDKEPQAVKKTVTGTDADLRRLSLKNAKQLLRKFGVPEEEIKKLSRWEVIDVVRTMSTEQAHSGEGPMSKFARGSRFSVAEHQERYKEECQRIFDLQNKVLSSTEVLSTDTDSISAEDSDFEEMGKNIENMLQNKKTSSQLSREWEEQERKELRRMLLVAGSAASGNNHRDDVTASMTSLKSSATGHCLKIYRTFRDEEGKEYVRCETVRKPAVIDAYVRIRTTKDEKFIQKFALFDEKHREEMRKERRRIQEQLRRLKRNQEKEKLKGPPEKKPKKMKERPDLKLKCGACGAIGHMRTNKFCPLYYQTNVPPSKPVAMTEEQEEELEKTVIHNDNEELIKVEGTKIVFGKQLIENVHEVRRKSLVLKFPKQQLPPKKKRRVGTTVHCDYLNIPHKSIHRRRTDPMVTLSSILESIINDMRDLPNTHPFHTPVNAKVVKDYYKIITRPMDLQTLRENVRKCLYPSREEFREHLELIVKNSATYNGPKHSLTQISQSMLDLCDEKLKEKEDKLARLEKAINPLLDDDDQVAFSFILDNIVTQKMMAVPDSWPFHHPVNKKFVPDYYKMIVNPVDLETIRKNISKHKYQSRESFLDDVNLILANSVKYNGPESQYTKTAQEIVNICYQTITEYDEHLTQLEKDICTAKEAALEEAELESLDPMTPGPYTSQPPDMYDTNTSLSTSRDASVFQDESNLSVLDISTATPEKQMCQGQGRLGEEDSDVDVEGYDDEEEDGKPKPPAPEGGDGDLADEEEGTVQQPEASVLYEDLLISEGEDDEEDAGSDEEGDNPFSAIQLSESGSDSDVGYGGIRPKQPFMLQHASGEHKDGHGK
Chain of UniProt Q00535 (whole entry, looked up): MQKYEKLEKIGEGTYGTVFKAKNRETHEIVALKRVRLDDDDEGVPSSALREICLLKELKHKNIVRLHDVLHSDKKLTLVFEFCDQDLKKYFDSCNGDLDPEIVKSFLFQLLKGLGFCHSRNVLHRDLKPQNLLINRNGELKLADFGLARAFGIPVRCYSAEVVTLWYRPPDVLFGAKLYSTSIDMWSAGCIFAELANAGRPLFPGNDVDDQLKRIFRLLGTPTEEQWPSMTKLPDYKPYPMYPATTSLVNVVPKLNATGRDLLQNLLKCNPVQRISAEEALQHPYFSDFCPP
Chain of UniProt Q16620 (whole entry, looked up): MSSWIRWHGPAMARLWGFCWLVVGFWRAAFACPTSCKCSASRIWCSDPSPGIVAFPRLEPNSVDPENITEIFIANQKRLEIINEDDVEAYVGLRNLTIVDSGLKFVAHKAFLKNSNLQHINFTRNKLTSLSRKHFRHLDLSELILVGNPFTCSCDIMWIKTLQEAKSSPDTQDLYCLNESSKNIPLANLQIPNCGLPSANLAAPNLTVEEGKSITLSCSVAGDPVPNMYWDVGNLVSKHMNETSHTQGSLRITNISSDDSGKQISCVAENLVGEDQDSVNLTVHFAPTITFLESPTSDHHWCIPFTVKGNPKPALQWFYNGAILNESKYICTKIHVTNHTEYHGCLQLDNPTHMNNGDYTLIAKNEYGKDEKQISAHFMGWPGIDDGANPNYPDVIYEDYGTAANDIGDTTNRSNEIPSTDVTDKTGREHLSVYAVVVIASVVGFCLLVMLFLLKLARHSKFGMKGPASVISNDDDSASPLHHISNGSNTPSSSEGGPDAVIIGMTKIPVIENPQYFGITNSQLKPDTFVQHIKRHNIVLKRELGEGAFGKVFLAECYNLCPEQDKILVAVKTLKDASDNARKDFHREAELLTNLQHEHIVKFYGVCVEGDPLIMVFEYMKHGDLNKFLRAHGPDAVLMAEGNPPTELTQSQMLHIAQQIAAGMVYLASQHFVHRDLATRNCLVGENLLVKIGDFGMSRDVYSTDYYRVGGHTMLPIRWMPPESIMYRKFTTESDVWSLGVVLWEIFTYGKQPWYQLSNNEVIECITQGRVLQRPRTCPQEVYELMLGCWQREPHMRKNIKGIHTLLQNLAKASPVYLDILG
Chain of UniProt Q9Y2H9 (whole entry, looked up): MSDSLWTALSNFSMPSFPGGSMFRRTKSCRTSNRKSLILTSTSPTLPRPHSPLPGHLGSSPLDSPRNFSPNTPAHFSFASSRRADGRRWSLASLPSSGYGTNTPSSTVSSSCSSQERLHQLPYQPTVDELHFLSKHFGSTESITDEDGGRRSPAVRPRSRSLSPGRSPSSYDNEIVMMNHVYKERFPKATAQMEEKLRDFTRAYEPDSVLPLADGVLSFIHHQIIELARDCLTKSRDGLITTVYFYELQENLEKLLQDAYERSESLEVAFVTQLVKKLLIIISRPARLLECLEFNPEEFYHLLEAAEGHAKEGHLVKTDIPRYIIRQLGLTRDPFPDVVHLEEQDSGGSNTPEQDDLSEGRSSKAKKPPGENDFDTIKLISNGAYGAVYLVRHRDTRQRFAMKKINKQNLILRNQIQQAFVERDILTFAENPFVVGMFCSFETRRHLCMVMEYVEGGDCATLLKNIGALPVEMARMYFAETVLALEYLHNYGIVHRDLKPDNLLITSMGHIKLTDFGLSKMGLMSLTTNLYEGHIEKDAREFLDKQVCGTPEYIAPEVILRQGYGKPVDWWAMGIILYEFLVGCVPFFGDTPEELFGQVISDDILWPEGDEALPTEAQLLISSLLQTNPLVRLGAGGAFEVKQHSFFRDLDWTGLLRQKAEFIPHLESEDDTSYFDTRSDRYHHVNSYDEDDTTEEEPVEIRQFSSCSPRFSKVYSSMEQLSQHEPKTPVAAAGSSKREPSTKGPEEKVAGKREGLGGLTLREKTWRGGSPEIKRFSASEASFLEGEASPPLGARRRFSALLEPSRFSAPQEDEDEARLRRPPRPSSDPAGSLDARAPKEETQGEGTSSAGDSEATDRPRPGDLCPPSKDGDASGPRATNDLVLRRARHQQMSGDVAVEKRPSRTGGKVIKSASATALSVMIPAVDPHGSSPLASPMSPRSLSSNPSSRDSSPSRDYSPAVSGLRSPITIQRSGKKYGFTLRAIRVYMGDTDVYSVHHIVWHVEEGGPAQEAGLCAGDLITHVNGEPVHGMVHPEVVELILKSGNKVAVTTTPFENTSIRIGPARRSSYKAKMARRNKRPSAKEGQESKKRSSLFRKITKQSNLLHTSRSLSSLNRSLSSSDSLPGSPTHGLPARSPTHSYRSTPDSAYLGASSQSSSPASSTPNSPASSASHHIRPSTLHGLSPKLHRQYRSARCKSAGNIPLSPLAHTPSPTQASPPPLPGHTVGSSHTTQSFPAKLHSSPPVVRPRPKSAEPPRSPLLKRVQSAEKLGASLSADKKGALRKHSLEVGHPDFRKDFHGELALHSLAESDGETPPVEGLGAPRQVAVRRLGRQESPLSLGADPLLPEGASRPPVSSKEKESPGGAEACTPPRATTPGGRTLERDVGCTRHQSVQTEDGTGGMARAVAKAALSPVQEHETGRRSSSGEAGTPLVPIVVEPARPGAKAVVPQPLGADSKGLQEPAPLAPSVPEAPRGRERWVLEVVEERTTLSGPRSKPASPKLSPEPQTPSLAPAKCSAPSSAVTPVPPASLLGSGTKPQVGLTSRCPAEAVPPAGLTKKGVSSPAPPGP
Chain of UniProt Q52WX2 (whole entry, looked up): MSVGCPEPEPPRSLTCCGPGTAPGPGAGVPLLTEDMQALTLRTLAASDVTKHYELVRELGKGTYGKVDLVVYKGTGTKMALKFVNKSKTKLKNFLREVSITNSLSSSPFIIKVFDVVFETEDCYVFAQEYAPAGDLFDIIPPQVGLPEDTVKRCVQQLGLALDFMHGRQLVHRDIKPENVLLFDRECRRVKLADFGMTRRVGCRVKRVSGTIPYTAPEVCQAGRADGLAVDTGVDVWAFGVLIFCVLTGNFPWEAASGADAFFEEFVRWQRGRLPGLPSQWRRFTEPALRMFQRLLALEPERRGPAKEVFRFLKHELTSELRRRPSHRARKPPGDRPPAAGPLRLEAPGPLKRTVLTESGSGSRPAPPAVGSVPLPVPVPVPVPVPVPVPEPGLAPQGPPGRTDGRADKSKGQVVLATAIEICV

SMILES | target | assay | system | setting | how to read | remaining activity [%]
O=C(O)c1ccc(Nc2ncc3c(n2)-c2ccc(Cl)cc2C(c2c(F)cccc2F)=NC3)cc1 | SGK(h) | kinase activity |  | 1 µM |  | 99
O=C(NC1CCC1)c1ccc2nc(-c3cccc(NS(=O)(=O)NCCN4CCCCC4)c3)cn2c1 | Serine/threonine-protein kinase SBK1 (SBK1, Homo sapiens, UniProt Q52WX2) | enzyme activity |  | 10 µM |  | 98
COc1cc(Nc2ncc3c(n2)-c2ccc(Cl)cc2C(c2c(F)cccc2OC)=NC3)ccc1C(=O)O | PRKCG | kinase activity |  | 1 µM |  | 107
C=CC[C@@H]1c2ccc(OC)c(OC)c2CN2CCc3cc4c(cc3[C@H]12)OCO4 | P2X purinoceptor 7 (P2RX7, Homo sapiens, UniProt Q99572) | ATP-evoked current, inhibitor, whole-cell patch clamp | HEK293 transfected | 3 µM |  | 9.88
C=CC(=O)N1CCC[C@@H](n2nc(-c3ccc(Oc4ccccc4)cc3)c3c(N)ncnc32)C1 | BDNF/NT-3 growth factors receptor (NTRK2, Homo sapiens, UniProt Q16620) |  |  | 10 µM |  | 183
COc1cc(N2CCN(C)CC2)ccc1Nc1nc(N)n(C(=S)NCc2c(Cl)cccc2Cl)n1 | Microtubule-associated serine/threonine-protein kinase 1 (MAST1, Homo sapiens, UniProt Q9Y2H9) | enzyme activity |  | 10 µM | reference: control | 13
COc1cc(-c2cncc3c2CN(C)Cc2cc(N4CCNCC4)ccc2-3)cc(OC)c1OC | Transcription initiation factor TFIID subunit 1-like (TAF1L, Homo sapiens, UniProt Q8IZX4) | kinase activity |  | 1 µM, human enzyme, added: ATP 10 µM | reference: DMSO control | 115
COc1ccc(F)cc1C(=O)NCc1ccc(-c2nn([C@@H](C)C(F)(F)F)c(N)c2C(N)=O)cc1 | Cyclin-dependent kinase 5, with p25 (CDK5, Homo sapiens, UniProt Q00535) | kinase activity, inhibitor, HotSpot radiometric |  | 1000 nM, added: ATP at Km |  | 87.2 ± 0.6
